Results from different studies.
Protocols differ between the studies behind these lines. Several values in a cell are separate wells, animals, samples, runs or records. Numbers after ± are the reported error.

`Cn1c(=O)[nH]c2ncn(C)c2c1=O` gave a plasma concentration of 15200 nM (human, both sexes, plasma; median).
`CN1CCN(c2ccc(OC(F)(F)F)c(Nc3ncc4c(n3)-c3c(c(C(N)=O)nn3CCO)CC4)c2)CC1` has a plasma concentration of 33.2 ng/mL and 2.9 ng/mL and 0.789 ng/mL and 3.84 ng/mL and 5.4 ng/mL and 3.18 ng/mL (LC-MS/MS; human, plasma; oral, 12 mg/m2, 72 h post-dose).
`C[C@H](CCC(=O)NCC(=O)O)[C@H]1CC[C@H]2[C@@H]3CC[C@@H]4C[C@H](OS(=O)(=O)O)CC[C@]4(C)[C@H]3CC[C@]12C` gave a plasma concentration of 687 ± 229 nM (healthy human volunteers, plasma; dose not given, 0 h, control phase, probe drugs alone).
For `O=C(O)c1cccc(O)c1O`, plasma concentration read “not detected” (human, plasma; dose not given, mean).
The plasma concentration of `C[C@H](CCC(=O)NCC(=O)O)[C@H]1CC[C@H]2[C@@H]3CC[C@@H]4C[C@H](O)CC[C@]4(C)[C@H]3C[C@H](O)[C@]12C` is reported as 290 ± 104 nM (healthy human volunteers, plasma; oral, dose not given, 0 h, control phase, probe drugs alone).
The plasma concentration of `C[C@@H](O)[C@H]1C(=O)N2C(C(=O)O)=C(SCCN=CN)C[C@H]12` is reported as 35100 nM (human; intravenous, 500 mg single, 0.08 h).
`N#Cc1ccc(C(c2ccc(C#N)cc2)n2cncn2)cc1` gave a plasma concentration of 526 ± 103 ng/mL (human patients, plasma; oral, 15 mg daily, day of surgery).
`CCCN(CCC)S(=O)(=O)c1ccc(C(=O)O)cc1` gave a plasma concentration of 358000 nM (healthy male humans, plasma; oral, dose not given, 3 h, 1 h before cocktail).
`O=C(O)CCCCCCCCCCC(=O)O` gave a plasma concentration of 29.8 ± 4.7 nM (healthy human volunteers, plasma; oral, dose not given, 0 h, control phase, probe drugs alone).
`O=C(Nc1cnccc1Cl)N1CCN(Cc2ccc3c(c2)OC(F)(F)O3)CC1` has a plasma concentration of 1.44 ng/mL (human, plasma; 2.5 mg once daily, 24 h post dose day 7).
The plasma concentration of `Cn1cnc2c1c(=O)[nH]c(=O)n2C` is reported as 22400 nM (human, both sexes, plasma; mean).
`C[C@H](CCC(=O)NCC(=O)O)[C@H]1CC[C@H]2[C@@H]3[C@H](O)C[C@@H]4C[C@H](O[C@@H]5O[C@H](C(=O)O)[C@@H](O)[C@H](O)[C@H]5O)CC[C@]4(C)[C@H]3CC[C@]12C` gave a plasma concentration of 46.5 ± 11.6 nM (healthy human volunteers, plasma; dose not given, 0 h, baseline phase, no drug).
`COc1cc2c(cc1OC)CN(CCc1ccc(NC(=O)c3cc(OC)c(OC)cc3NC(=O)c3cnc4ccccc4c3)cc1)CC2` has a plasma concentration of 1700 nM (human, plasma; intravenous, 5.9 mg/kg, 60 min).

For quick reference, copied from above:
For `O=C(O)c1cccc(O)c1O`, plasma concentration read “not detected” (human, plasma; dose not given, mean).
`CCCN(CCC)S(=O)(=O)c1ccc(C(=O)O)cc1` gave a plasma concentration of 358000 nM (healthy male humans, plasma; oral, dose not given, 3 h, 1 h before cocktail).
